Measured values pooled from the literature.
Each line is one published result; not all experiments were run side by side. Numbers after ± are the reported error.

`C=CC(=O)N1CCC[C@@H](n2c(=O)n(-c3ccc(Oc4ccccc4)cc3)c3c(N)nccc32)C1` has a half-life of about 2 h (human, fasted, plasma; oral).
The half-life of `Nc1ccc(-c2nc([C@H]3CCc4cc(-c5cc(Cl)ccc5-n5cnnn5)cc(=O)n43)c(F)[nH]2)c(F)n1` is reported as 22.1 h (human, plasma; oral, 250 mg once daily, day 14, fed).
With `COc1cc2ncnc(Nc3ccc(F)c(Cl)c3)c2cc1OCCCN1CCOCC1` the half-life was 20.2 ± 7.3 h (human, plasma; oral, 250 mg, added: vorinostat 200 mg).
`C[C@H]1O[C@@H](O[C@H]2[C@@H](O)C[C@H](O[C@H]3[C@@H](O)C[C@H](O[C@H]4CC[C@@]5(C)[C@H](CC[C@@H]6[C@@H]5C[C@@H](O)[C@]5(C)[C@@H](C7=CC(=O)OC7)CC[C@]65O)C4)O[C@@H]3C)O[C@@H]2C)C[C@H](O)[C@@H]1O` gave a half-life of 44.1 h (human; oral, day 19, added: isavuconazole).
With `CCCCOC(=O)N1CCN(C(=O)[C@H](CP(=O)(O)O)NC(=O)c2cc(N3CC[C@H](OC)C3)nc(-c3ccccc3)n2)CC1` the half-life was 2.5 h (healthy human, plasma; subcutaneous, 4 mg, placebo i.v.; geometric mean).
For `C=C(C)[C@@H]1CC[C@]2(NCCN3CCS(=O)(=O)CC3)CC[C@]3(C)[C@H](CC[C@@H]4[C@@]5(C)CC=C(C6=CC[C@@](CF)(C(=O)O)CC6)C(C)(C)[C@@H]5CC[C@]43C)[C@@H]12`, the half-life was 26.2 h (healthy human volunteers; oral, 200 mg, tablet, moderate-fat meal, geometric mean).
The half-life of `COc1cc(C(=O)NC2CCN(C)CC2)c(F)cc1Nc1ncc(C(F)(F)F)c(Oc2cccc3c2C(=O)N(C)C3)n1` is reported as 20.3 h (human patients, plasma; oral, 200 mg once daily, steady state).
`O=C(c1ccc(OCCN2CCCCC2)cc1)c1c(-c2ccc(O)cc2)sc2cc(O)ccc12` has a half-life of 23.4 h (healthy humans, plasma; oral, 60 mg, added: acute green tea).
`CS(=O)(=O)n1cc2c(n1)CN([C@H]1CO[C@H](c3cc(F)ccc3F)[C@@H](N)C1)C2` gave a half-life of 47.7 h (healthy male human, plasma; oral, 50 mg single, fasted, geometric mean).
With `Cc1ccc(NC(=O)c2ccc(CN3CCN(C)CC3)cc2)cc1Nc1nccc(-c2cncc(-c3oncc3C)c2)n1` the half-life was 36.6 h (older healthy human adults, plasma; oral, 175 mg single dose, fed, mean).
`CCn1c(C(=O)c2cc(C)cc(C#N)c2)c(C(C)C)c(=O)[nH]c1=O` gave a half-life of 28.2 ± 19.4 h (healthy humans, plasma; oral, 300 mg once daily, 7 days).
`O=C(NC[C@H](O)CO)c1ccncc1Nc1ccc(I)cc1F` gave a half-life of 5.12 h (human; oral, 45 mg, single dose alone).
`Cc1cccc(C)c1N(CC(=O)Nc1ccc(-c2ncon2)cc1)C(=O)C1CCS(=O)(=O)CC1` gave a half-life of 7.4 h (human male, plasma; oral, 400 mg single dose, geometric mean, alone).
With `O=C(COc1ccc(Cl)cc1)NC12CC(c3nnc([C@H]4C[C@@H](OC(F)(F)F)C4)o3)(C1)C2` the half-life was 31 to 45 h (healthy humans, plasma; oral, 15 to 800 mg single dose, fasted, mean across doses).
`O=C(CCCCCCC(=O)Nc1ccccc1)NO` has a half-life of 1.2 to 2.4 h (human patients; oral, 100 to 400 mg twice daily, all dose levels).
`CCCCC1(CCCC)CN(c2ccccc2)c2cc(SC)c(OCC(=O)N[C@@H](C(=O)NCC(=O)O)c3ccccc3)cc2S(=O)(=O)C1` gave a half-life of 1.62 h (LC-MS/MS; human, plasma; oral, 2.5 mg, single dose, before breakfast).
For `CC(C)(/C=C(\C#N)C(=O)N1CCC[C@@H](n2nc(-c3ccc(Oc4ccccc4)cc3F)c3c(N)ncnc32)C1)N1CCN(C2COC2)CC1`, the half-life was 1.41 to 6.98 h (human, male, plasma; oral, 400 mg tablet, single dose, range of individual values).
The half-life of `CCN1CCN(Cc2ccc(Nc3ncc(F)c(-c4cc(F)c5nc(C)n(C(C)C)c5c4)n3)nc2)CC1` is reported as 25.5 h (population PK model; healthy human subjects, plasma; oral, 200 mg single dose).

For quick reference, copied from above:
`O=C(c1ccc(OCCN2CCCCC2)cc1)c1c(-c2ccc(O)cc2)sc2cc(O)ccc12` has a half-life of 23.4 h (healthy humans, plasma; oral, 60 mg, added: acute green tea).
